Measured values gathered from unrelated publications.
Numbered parts are unrelated; each lists some results of a single study. Values joined by “and” are separate records of one study, mostly repeats; a detail may differ.

Sample 1
Target: Calcium/calmodulin-dependent protein kinase type II subunit beta (CAMK2B, Homo sapiens, UniProt Q13554)
Sequence of UniProt Q13554 (whole entry, looked up): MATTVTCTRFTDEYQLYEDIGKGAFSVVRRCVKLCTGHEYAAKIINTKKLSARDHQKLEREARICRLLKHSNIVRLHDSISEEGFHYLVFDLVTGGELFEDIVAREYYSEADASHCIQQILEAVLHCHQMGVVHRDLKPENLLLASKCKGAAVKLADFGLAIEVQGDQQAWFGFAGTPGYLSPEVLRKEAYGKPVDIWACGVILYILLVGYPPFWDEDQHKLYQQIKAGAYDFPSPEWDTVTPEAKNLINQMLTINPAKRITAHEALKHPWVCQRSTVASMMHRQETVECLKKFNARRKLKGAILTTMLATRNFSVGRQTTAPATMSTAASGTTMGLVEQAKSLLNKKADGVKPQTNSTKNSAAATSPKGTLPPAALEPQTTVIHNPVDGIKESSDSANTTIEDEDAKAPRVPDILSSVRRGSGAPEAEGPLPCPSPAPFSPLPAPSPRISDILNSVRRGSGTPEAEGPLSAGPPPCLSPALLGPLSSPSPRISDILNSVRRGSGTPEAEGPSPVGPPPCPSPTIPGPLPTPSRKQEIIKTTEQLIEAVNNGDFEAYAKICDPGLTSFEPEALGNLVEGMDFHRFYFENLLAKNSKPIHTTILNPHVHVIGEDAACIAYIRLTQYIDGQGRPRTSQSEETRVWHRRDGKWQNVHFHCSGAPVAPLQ
Effect on: enzyme activity
Action: inhibitor
Concentration: 0.5 µM
Reference: control
| Compound | remaining activity |
| --- | --- |
| Nc1ncnc2n[nH]c(Nc3ccc(F)cc3)c12 | 97.7% |
| O=C1NC(=O)C(c2cn(CCCn3ccnc3)c3ccccc23)=C1Nc1ccccc1 | 93.8% |
| COc1cc2ncnc(Nc3ccc(F)c(Cl)c3)c2cc1OCCCN1CCOCC1 | 95.4% |
| NCCNc1ncc(C(N)=O)c(Nc2cccc(C(F)(F)F)c2)n1 | 89.8% |
| O=S(=O)(c1cccc2cnccc12)N1CCCNCC1 | 93.2% |
| C#Cc1cccc(Nc2ncnc3cc(OCCOC)c(OCCOC)cc23)c1 | 93.1% |
| Cc1cccc(-c2[nH]c(C(C)(C)C)nc2-c2ccc3c(c2)OCO3)n1 | 96.2% |
| O=C(CCCc1ccc(-c2ccccc2F)cc1)Nc1ccc(O)cc1 | 99.9% |
| COc1ccc(CNC(=O)Nc2ncc([N+](=O)[O-])s2)cc1 | 103% |
| Cc1ccc(Nc2nccc(N(C)c3ccc4c(C)n(C)nc4c3)n2)cc1S(N)(=O)=O | 95.5% |
| Cc1ccc(NC(=O)c2ccc(CN3CCN(C)CC3)cc2)cc1Nc1nc(-c2cccnc2)cs1 | 100% |
| CN(C)c1ccc(C=C2C(=O)Nc3ccccc32)cc1 | 108% |
| COc1cc2nccc(Oc3ccc(NC(=S)NC(=O)c4ccccc4C)cc3)c2cc1OC | 104% |
| O=C(O)c1ccc2c3c1cccc3c(=O)n1c3ccccc3nc21 | 92.6% |
| CO[C@H]1C[C@@H]2CC[C@@H](C)[C@@](O)(O2)C(=O)C(=O)N2CCCC[C@H]2C(=O)O[C@H]([C@H](C)C[C@@H]2CC[C@@H](O)[C@H](OC)C2)CC(=O)[C@H](C)/C=C(\C)[C@@H](O)[C@@H](OC)C(=O)[C@H](C)C[C@H](C)/C=C/C=C/C=C/1C | 99.2% |

Sample 2
Species: mouse
Matrix: microsomes or S9
Concentration: 2 µM
Time: 0.5 h
| SMILES | remaining compound |
| --- | --- |
| CCN1CCN(C(=O)c2cc3c(=O)n4cc(C)ccc4nc3n2C)CC1 | 57.4% |
| Cc1nc2c([nH]1)CCC(C(=O)Nc1onc3c1CCCC3)C2 (centres unmarked) | 0.386% |
| CC(C)(O)CC[C@@H](O)[C@](C)(O)C1CC[C@@]2(O)C3=CC(=O)C4C[C@@H](O)[C@@H](O)C[C@]4(C)C3CC[C@]12C (some centres unmarked) | 95.8% |
| O=C(CC(c1ccccc1)c1ccccc1)N1CCN(c2ccccn2)CC1 | 1.36% |
| CC(Nc1ccn(CCS(C)(=O)=O)n1)c1nc(C(C)(C)C)no1 (centres unmarked) | 62.5% |
| Cc1nc(Oc2ccccc2)c(N)c(N2CCC(C)CC2)n1 | 5.82% |
| Cc1cnc(C2CC2)n1C1CCCN(C(=O)c2ccccn2)C1 (centres unmarked) | 78% |
| O=C(C1=Cc2ccccc2OC=C1)N1CCCCC1c1ccccn1 (centres unmarked) | 4.55% |
| CN(C)S(=O)(=O)c1cc2c(cc1NC1CCCC1)Oc1ccccc1NC2=O | 92.8% |
| CC(C)(C)c1cc(NC(=O)CSC2=NN/C(=C3\C=c4ccccc4=N3)N2c2ccccc2)on1 | 3.43% |
| Cn1cc(C(=O)Nc2ccc(C#N)cc2)c2ccccc2c1=O | 47.4% |
| Cn1nc(C2CCN(C(=O)[C@H]3CC(=O)NC(=O)N3)CC2)n(-c2ccccc2)c1=O | 77.8% |
| CC(C)n1cncc1CN1CC[C@H]2OCc3cnnn3[C@H]2C1 | 77% |
| CN(C)S(=O)(=O)CCNCc1ccc(-c2ccccc2)cc1 | 1.75% |
| Cc1cc(C(F)(F)F)nc(OCCCC#N)c1C(=O)C1C(=O)C2CCC(C2)C1=O (centres unmarked) | 85.4% |

Sample 3
SMILES: CC(C)S(=O)(=O)c1ccc2nccc(Nc3ccc4scnc4c3)c2c1
Cell line: L929
Effect on: caspase activity
Method: Ac-DEVD-pNA absorbance
Reading: higher = more activity
| setting | caspase-3 activity |
| --- | --- |
| 5 µM, 1 h | 0.0065 a.u. and 0.016 a.u. and 0.024 a.u. and 0.011 a.u. |
| 10 µM, 0 h | -0.0035 a.u. and 0.007 a.u. and 0.018 a.u. and 0.005 a.u. |
| 5 µM, 3 h | 0.101 a.u. and 0.104 a.u. and 0.172 a.u. and 0.111 a.u. |

Sample 4
Cell line: sample D normal colon organoid
Method: CellTiter-Glo
Concentration: 1 µM
Notes: mean of replicates
Reference: DMSO
| SMILES | viability |
| --- | --- |
| C[C@H](NC(=O)Nc1cc2[nH]ncc2c(CO)n1)c1ccccn1 | 91.9% |
| CN(C)c1ncnc(-c2ccc3nc(Nc4cc(CN5CCN(C(=O)CC(F)(F)F)CC5)ccn4)[nH]c3c2)c1Cl | 84.9% |
| O=C(O)c1cc(-c2ccc(C3CCNCC3)cc2)c2ccc(-c3ccc(C(F)(F)F)cc3)cc2c1 | 120% |
| CCNC(=O)c1cc2c(N3CCOC[C@@H]3C)ccnc2[nH]1 | 111% |
| c1ccc(N2CCN(Cc3nc4ccccc4[nH]3)CC2)nc1 | 103% |
| CCCCN(CCCC)C(=O)CN1C[C@@H](c2cc(OC)c3c(c2)OCO3)[C@H](C(=O)O)[C@H]1CC(C)(C)CCC | 126% |
| O=C(Nc1cccnn1)N1CCC(=Cc2cccc(Oc3ccc(C(F)(F)F)cn3)c2)CC1 | 89.2% |
| C[C@@H]1CN(c2cc(-c3nn(C)c4ccc(OC5(C)CC5)cc34)ncn2)C[C@H](C)O1 | 98.8% |
| CCOCCn1cc(C(=O)Nc2ccc(-n3nc(-c4cccnc4)cc3C(F)(F)F)cn2)ccc1=O | 100% |
| CCc1ccccc1C(=O)Nc1n[nH]c2c(C)c(F)c(C3C(C#N)=C(C)N(C)C(C)=C3C#N)cc12 | 65% |
| CN1CCN(C(=O)C(C)(C)c2ccc(C(=O)Nc3cn4cc(-c5ccncc5)ccc4n3)cc2)CC1 | 36.1% |
| CC(=O)Nc1c(C(C)=O)c(=O)n(C)c2nc(-c3ccc(Cl)cc3Cl)c(-c3ccc(Cl)cc3)cc12 | 114% |
| Cc1cnc(-c2cc(Cl)ccc2F)cc1-n1c(=O)n(CC(N)=O)c2cnccc21 | 118% |
| CN(C)C(=O)Cn1cc(-c2nc(C3(c4ccc(-c5cnc(N)nc5)cc4)CC3)no2)cn1 | 97.8% |

For quick reference, copied from above (sample 1):
| Compound | remaining activity |
| --- | --- |
| C#Cc1cccc(Nc2ncnc3cc(OCCOC)c(OCCOC)cc23)c1 | 93.1% |
| Cc1cccc(-c2[nH]c(C(C)(C)C)nc2-c2ccc3c(c2)OCO3)n1 | 96.2% |
| O=C(CCCc1ccc(-c2ccccc2F)cc1)Nc1ccc(O)cc1 | 99.9% |
| COc1ccc(CNC(=O)Nc2ncc([N+](=O)[O-])s2)cc1 | 103% |
| Cc1ccc(Nc2nccc(N(C)c3ccc4c(C)n(C)nc4c3)n2)cc1S(N)(=O)=O | 95.5% |
